# Results pooled from the literature.
# Each line is one published result; not all experiments were run side by side.
# Cell line: Vero
SMILES,test,conditions,endpoint,result
COc1c(Cc2ccccc2O)c(O)c2c(c1Cc1ccccc1O)O[C@H](c1ccccc1)CC2=O,MTT,"concentration not given, 72 h",cytotoxicity,inactive
Cc1nn(C)c(O)c1-c1nc2cc(Cl)c(Cl)cc2[nH]c1=O,"cell growth or viability, MTT",72 h,IC50,> 100 µM
C/C(=N\N=c1/[nH]c(-c2ccccc2)cs1)c1ccccn1,"cell growth or viability, SRB","100 µg/mL, 48 h",inhibition,63.6%
CCCCCCCCCCCCCCCCC1CC(=O)NCCCN(C)CCCCN(C)CCCN1C (centres unmarked),"cytotoxicity, neutral red",,IC50,2.8 µg/mL
N#CC[C@H](C1CCCC1)n1cc(-c2ncnc3[nH]ccc23)cn1,"cell growth or viability, MTT",72 h,IC50,> 50 µM
O=C1C[C@@H](c2ccccc2)Oc2c(Cc3ccccc3O)c(O)cc(O)c21,MTT,"concentration not given, 72 h",cytotoxicity,inactive
C/C(=N\NC(N)=S)c1ccccn1,"cell growth or viability, SRB",48 h,IC50,7.5 µg/mL
Cc1ccc2nc(C)c(C(=O)NCc3ccc(C(F)(F)F)cc3)n2c1,cytotoxicity,,IC50,> 50 µM

# For quick reference, copied from above:
SMILES,test,conditions,endpoint,result
Cc1ccc2nc(C)c(C(=O)NCc3ccc(C(F)(F)F)cc3)n2c1,cytotoxicity,,IC50,> 50 µM
